Results from different studies.
Parts stem from different laboratories: compare values within a part only.

Set 1
Target: Interferon regulatory factor 7, full length, phosphomimetic (IRF7, Homo sapiens, UniProt Q92985, residues 1-503, S471D/S472D/S475D/S476D/S477D/S483D/S484D/S487D)
Method: protein-binding microarray
Form: double-stranded DNA, one strand shown
Sample: in vitro
Concentration: 2200 nM top
Setting: 60-bp whole probe
Added: salmon DNA 0.4 mg/ml
Relative to: random background probes
Direction: higher = stronger binding
Endpoint: fitted relative affinity
Constant ends, left off below: GCCTAGCAC … GTCTTGATTCGCTTGACGCTGCTG
Construct (chain): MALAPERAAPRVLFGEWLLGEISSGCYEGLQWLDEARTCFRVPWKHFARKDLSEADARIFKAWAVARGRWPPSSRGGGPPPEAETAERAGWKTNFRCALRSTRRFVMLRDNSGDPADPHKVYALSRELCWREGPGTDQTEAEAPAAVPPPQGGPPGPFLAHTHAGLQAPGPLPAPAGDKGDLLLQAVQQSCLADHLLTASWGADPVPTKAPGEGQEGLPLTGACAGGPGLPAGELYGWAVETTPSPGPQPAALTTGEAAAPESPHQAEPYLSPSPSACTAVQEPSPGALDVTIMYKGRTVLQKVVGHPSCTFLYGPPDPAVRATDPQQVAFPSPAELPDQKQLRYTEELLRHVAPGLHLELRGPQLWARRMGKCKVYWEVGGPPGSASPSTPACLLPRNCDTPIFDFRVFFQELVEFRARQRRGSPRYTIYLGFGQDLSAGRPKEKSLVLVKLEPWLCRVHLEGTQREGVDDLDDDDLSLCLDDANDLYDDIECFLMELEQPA
GACGGTCTCGGACTGGCGACGTGCTAG: -0.471 z-score
TTAGGACAGCTTATCCTTTAGTGCTAG: -0.153 z-score
TTTTTTTTTTTTTTTTTACTGTGCTAG: 1.9 z-score
TACGATCTCAGTATCGAGACGTGCTAG: 0.118 z-score
TCACATATAATTTTGTCACTGTGCTAG: 0.92 z-score
GACGGTATAGGTTTCGGGACGTGCTAG: 2.31 z-score
GACGGACTTCTACTGCTGACGTGCTAG: 0.289 z-score
GACGGTATCCTTATCCTGTCGTGCTAG: 1.44 z-score
TTCGATATCAGTCTCGATTAGTGCTAG: 1.07 z-score
GATGGTATCGACACTGGGGACGTGCTA: -0.199 z-score
TTAGATTTCAGTCTCAATTAGTGCTAG: 0.443 z-score
GACGATTTCGGCTATCGAGACGTGCTA: 1.33 z-score
GACGGTTTCGGTTCCGGGACGTGCTAG: 11.6 z-score
TTTCCTTTATGTACTCTCTACGTGCTA: 4.38 z-score
TCATTTCTCAACCATTTTACTGTGCTA: 2.14 z-score
TATTCTCTACTTGTGTCTAGGTGCTAG: 2.05 z-score
TTAGATTTCGGTTTCGGTTAGTGCTAG: 14.4 z-score

Set 2
Target: Histone acetyltransferase KAT6A, both winged helices, GST fusion (KAT6A, Homo sapiens, UniProt Q92794, residues 1-181)
Method: protein binding microarray
Form: double-stranded DNA, one strand shown
Sample: in vitro
Concentration: not given
Setting: 8-mer, flanks averaged, mean of 2 arrays, mostly near background
Relative to: not given
Direction: higher = stronger binding
Endpoint: E-score
Residues (chain): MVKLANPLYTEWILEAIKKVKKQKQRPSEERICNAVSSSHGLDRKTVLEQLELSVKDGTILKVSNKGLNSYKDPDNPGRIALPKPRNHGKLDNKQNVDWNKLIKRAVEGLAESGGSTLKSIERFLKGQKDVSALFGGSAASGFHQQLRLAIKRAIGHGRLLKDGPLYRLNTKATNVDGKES
GACAAGGC: 0.0336
ATTGACAC: 0.0699
ACGTTTCT: -0.251
CAAGGGCC: -0.121
AATATCAA: -0.0964
GCAAGCAC: -0.0503
GACGGTGC: 0.243
TACACCGA: 0.0538
GATGTGGC: 0.0423
AAATGCAT: -0.0236
CGCTAACG: 0.302
CAGCTATA: -0.168
CTTCACCA: -0.0878
TAGCTCCA: -0.165
AAGCGATC: 0.132
AAAAGTTC: -0.0329
GCCGGTAC: 0.202
TATACAGA: -0.104
CCATCAAA: -0.153
AAAGCGGG: 0.209
ACTAGTGA: -0.165
CAAGTACC: -0.0723
GGGGTATA: -0.173

Set 3
Target: Hepatocyte nuclear factor 3-alpha (Foxa1, Mus musculus, UniProt P35582, residues 1-468, full length assumed)
Method: EMSA with sequencing
Form: double-stranded DNA, one strand shown
Sample: in vitro
Concentration: 10 and 20 nM
Setting: whole designed probe, mean of two concentrations, ends assumed
Relative to: negative control set to 0
Direction: higher = stronger binding
Endpoint: normalised bound fraction
Constant ends, left off below: GTGAGCGGTGCCCATTGATGGGGAAC … TTTCACTGGGATCGTGGGGAC
Residues (chain): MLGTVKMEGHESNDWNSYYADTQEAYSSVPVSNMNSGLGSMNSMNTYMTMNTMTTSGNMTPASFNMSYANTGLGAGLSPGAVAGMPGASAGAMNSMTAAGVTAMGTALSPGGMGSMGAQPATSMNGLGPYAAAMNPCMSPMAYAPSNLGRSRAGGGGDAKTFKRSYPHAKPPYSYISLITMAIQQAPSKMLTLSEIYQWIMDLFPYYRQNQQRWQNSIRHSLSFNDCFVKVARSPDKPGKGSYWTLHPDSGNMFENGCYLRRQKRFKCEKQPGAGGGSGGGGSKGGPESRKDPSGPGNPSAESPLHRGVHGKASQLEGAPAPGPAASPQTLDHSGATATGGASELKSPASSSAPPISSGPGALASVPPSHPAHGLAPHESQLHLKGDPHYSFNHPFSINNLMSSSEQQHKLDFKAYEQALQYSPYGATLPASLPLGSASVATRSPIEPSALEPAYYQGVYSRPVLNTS
CTGTATGTCATCTTGCTCCTGGGCCACCTGACTGATGTTTAATGCCTGGAAAATTGCTTTCACCTCTGCATGACCAAGCCTTGGCCAAGTCACAGATGACTCAGTTGCAACATCTGTCCCCTGCTGAGGGCTGTTGTAGCTTTCATAGCTCACAGTCCAGCTTGAATCTAACCTTTTCTGTGGTCATTCAGAG: -0.0662 ratio
AACTTTCATGCACAAAAAGACACATGAGCATCATCTAATAAATATTCCTTCTTGTTACAGATGAGAAACAGGCTGGGCATGGTGACTCATGCCAGATTACCCAGCACTTTACAAGGCCAAGATGGGAGGATCACTTGAGCCCAGGGGCTCGAGACCAGCCTGGGCAACATGGTGAGACCTCATCTCTACAAAA: 0.265 ratio
CATTAGAGTCAAAGTTGTTAAGGGGAGCTAGTCATAGCTACCACGTGGCCAGGCATGTGGAACCAGACACCAGGCACAATGAATCATCACATCTATTTACTTTAAATAATGCTGACAACCTAGTTCATAGTGACACACTACTTGAGATATATAGAATAACATTATTACCCAGTAAGTATGTGAACATTCCGAT: 0.348 ratio
CCACATGACTCATAAATAGATGGAAAGACACTCAACCACTTCAGTAGCCAAGCAAATTCAAACACACATCACAATGAGGTATTACTATACTCTGCAATCTCCAAGTATCGGCAAGGATGTCGAGCGACAGGGAGTCCCGTGCACTGCCAGGGGAGGTGTGAATCGGCACATCCAGGTGGGAAAGCAAAGTGGC: -0.0187 ratio
TAAAATGGTGTTTAATTTTAGCATTTAACAACTCATTTGTTGCTTTCTTATGACATACAAAAGAAAGAGAAGGTTACTGATTCACACAAACATGTTTACATTGGAATTCCAACGTAATTTCTTTTCTAGAATAGCCAAAATAATACATGCCATTGACACAAAGAACAATAAACCTATATTTTATATAGGTGCA: 0.3 ratio

Set 4
Target: RNA binding protein fox-1 homolog 2, RRM domain, GST-SBP tag (RBFOX2, Homo sapiens, UniProt O43251-10, residues 100-194)
Method: RNA Bind-n-Seq
Form: RNA
Sample: in vitro
Concentration: 365 nM
Setting: natural RNA segment, single round, ends assumed
Relative to: no-protein control
Direction: higher = stronger binding
Endpoint: RBNS enrichment (R)
Constant ends, left off below: GGGAGUUCUACAGUCCGACGAUC … UGGAAUUCUCGGGUGCCAA
Target sequence (chain): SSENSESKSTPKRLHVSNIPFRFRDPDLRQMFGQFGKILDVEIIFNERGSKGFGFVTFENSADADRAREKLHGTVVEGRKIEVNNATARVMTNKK
CCGUUAGUCAUUACUGCUGAGUCCUGGGUCACCAGCAGACACACUGGGCAUGGACCCCUCAAAGCAGGCACACCCAAAACACAAGUCUGUGGCUAGAACCUGAUGUGGUG: 5.27
UGGUUUUCUGCCUGUGUGCUGCCCAAGGCUCAAUCAGUGCUAAGCUUCAUAGAUGGCAUAUACCCUUCACCUUCAACUAACAGGAUACUCACCCCAAAGGCGCAGUCAGG: 0.353
CUUUGUAGCAUAUGCCUGUGGUCCCAGCUACUGAGGAGGCUGAGGUGGGAGGAUUGCUUGAGCCCAGGAGGCAGAGGUUGCAGUGAGCCAAGGUCACGUCACUGCACUCU: 1.3
AAUCAACAGAUUUGUGGACCCUGGUAAAGAAGUUCAGCCAAGUCUCAGUGAAAAAUGUUAAGAAGUUGAUGCAAGCUGCAUGCUCCUUGUUAAGAUGCAGGCUUUGCAUA: 1.28
UGGUGUAAAUUUUAAAAUUUUGUAUAGGUAUUUCAUAACAAAAAAUUAUGUAUUUCUUUGUUAUUUUAUCUUGAAGACGGUACAUAUUUUCGUAUUUGUGCAGAAAAACA: 0.881
GCUACCUUUCAUGUCAAAAUGUUGAUCUGUUAUAAAUAAAUGUUUUGCAUACUUGUUUUUGCUGUGUAUUUUGUUUUCACUUUGAAUCACUUUAUCCGUACAAAAAUAAA: 0.617
UCAGAGGUACUAUGGGGGAGCAGAGGUGGUGGAUGAAUUGAGCUGCUGUGCCAGCGCCGGGCCUUGGAAGCCUUUGACCUGGAUCCUGCACAGUGGGGAGUCAAUGUCCA: 0.554
CCAUUCACAUCCCAGGGCUGUGUCCAGACAGCACAAAACGGCAAGGAGAGCCCAAGCCCCAAUGCCAGAAUUCUUCCAAACUCCCUGACUCUUUGAAGUUUUUACUCACC: 0.675

Some of these lines once more (set 4):
GCUACCUUUCAUGUCAAAAUGUUGAUCUGUUAUAAAUAAAUGUUUUGCAUACUUGUUUUUGCUGUGUAUUUUGUUUUCACUUUGAAUCACUUUAUCCGUACAAAAAUAAA: 0.617
UGGUUUUCUGCCUGUGUGCUGCCCAAGGCUCAAUCAGUGCUAAGCUUCAUAGAUGGCAUAUACCCUUCACCUUCAACUAACAGGAUACUCACCCCAAAGGCGCAGUCAGG: 0.353
AAUCAACAGAUUUGUGGACCCUGGUAAAGAAGUUCAGCCAAGUCUCAGUGAAAAAUGUUAAGAAGUUGAUGCAAGCUGCAUGCUCCUUGUUAAGAUGCAGGCUUUGCAUA: 1.28
UCAGAGGUACUAUGGGGGAGCAGAGGUGGUGGAUGAAUUGAGCUGCUGUGCCAGCGCCGGGCCUUGGAAGCCUUUGACCUGGAUCCUGCACAGUGGGGAGUCAAUGUCCA: 0.554
UGGUGUAAAUUUUAAAAUUUUGUAUAGGUAUUUCAUAACAAAAAAUUAUGUAUUUCUUUGUUAUUUUAUCUUGAAGACGGUACAUAUUUUCGUAUUUGUGCAGAAAAACA: 0.881
CCAUUCACAUCCCAGGGCUGUGUCCAGACAGCACAAAACGGCAAGGAGAGCCCAAGCCCCAAUGCCAGAAUUCUUCCAAACUCCCUGACUCUUUGAAGUUUUUACUCACC: 0.675
CUUUGUAGCAUAUGCCUGUGGUCCCAGCUACUGAGGAGGCUGAGGUGGGAGGAUUGCUUGAGCCCAGGAGGCAGAGGUUGCAGUGAGCCAAGGUCACGUCACUGCACUCU: 1.3
CCGUUAGUCAUUACUGCUGAGUCCUGGGUCACCAGCAGACACACUGGGCAUGGACCCCUCAAAGCAGGCACACCCAAAACACAAGUCUGUGGCUAGAACCUGAUGUGGUG: 5.27
